Measured values gathered from unrelated publications.
A part holds a random share of what one study measured. Positions count from the first letter of the parent shown.

Block 1
Target: CCNB1, cyclin fold, Cln2 fusion (human)
Method: yeast growth competition, sequencing
Medium: yeast
Notes: strong parent motif
Baseline: not given
Direction: higher = stronger binding
Quantity: normalised enrichment score
Parent: MICAL3 docking peptide (human); LQLRRQLSFSEDS; partner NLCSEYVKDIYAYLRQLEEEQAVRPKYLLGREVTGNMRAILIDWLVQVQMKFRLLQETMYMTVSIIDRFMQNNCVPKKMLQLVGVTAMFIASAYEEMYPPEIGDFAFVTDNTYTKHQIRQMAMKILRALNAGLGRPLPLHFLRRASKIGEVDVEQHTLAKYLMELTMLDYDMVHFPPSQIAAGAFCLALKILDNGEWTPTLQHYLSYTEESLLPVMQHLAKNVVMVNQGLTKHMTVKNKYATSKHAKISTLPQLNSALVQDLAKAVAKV
L7D: -0.458
E11H: 2.04
S10P: 2.96
R4V: 4.89
D12Y: 3.52
L7H: 0.372
R5Y: 0.837
S8G: 0.19
L3V: 5.59
S10N: 4.66
S8D: 3.75
R4G: 0.637
L3M: 2.85
L7I: 1.61
Q6I: 1.36
S8I: 2.84
Q6V: 3.14
Q6M: 4.2
S10A: 3.38
D12S: 4.08
L3P: 2.8
Q6Y: 1.47
Q6G: 1.83
Q2D: 3.81
L3F: 2.41

Block 2
Target: MAFK, bZIP domain (human)
Method: DHFR protein complementation
Medium: yeast
Notes: single substitutions, most at no-binding floor
Baseline: wild-type JUN-FOS pair
Direction: higher = stronger binding
Quantity: binding fitness
Parent: JUN, bZIP domain (human); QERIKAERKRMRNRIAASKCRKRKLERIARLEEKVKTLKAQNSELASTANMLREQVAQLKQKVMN; partner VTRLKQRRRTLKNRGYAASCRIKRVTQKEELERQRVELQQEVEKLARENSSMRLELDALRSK
Q55V: -1.51 natural log
L52D: -1.5 natural log
R53K: -1.44 natural log
I28H: -1.48 natural log
A46K: -1.38 natural log
A29C: -1.5 natural log
A49R: -1.4 natural log
Q55R: -1.53 natural log
E44Y: -1.53 natural log
S43L: -1.37 natural log
L31I: -1.42 natural log
M51R: -1.42 natural log
S47C: -1.51 natural log
A40W: -1.49 natural log
L52V: -1.5 natural log
E33T: -1.52 natural log

Block 3
Target: RING finger protein unkempt homolog, zinc fingers 1-6, SBP tag (UNK, Homo sapiens, UniProt Q9C0B0, residues 30-357)
UniProt Q9C0B0, sequence (30-357, looked up): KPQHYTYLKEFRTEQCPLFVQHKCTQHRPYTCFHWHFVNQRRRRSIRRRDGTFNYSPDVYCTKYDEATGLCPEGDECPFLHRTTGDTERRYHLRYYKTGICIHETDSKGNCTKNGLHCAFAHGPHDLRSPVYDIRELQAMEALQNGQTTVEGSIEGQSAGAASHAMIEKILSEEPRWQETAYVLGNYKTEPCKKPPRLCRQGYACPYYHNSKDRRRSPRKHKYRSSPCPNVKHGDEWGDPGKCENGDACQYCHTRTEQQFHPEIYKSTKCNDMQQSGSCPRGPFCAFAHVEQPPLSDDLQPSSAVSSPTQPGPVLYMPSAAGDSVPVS
Method: RNA Bind-n-Seq
Form: RNA
Medium: in vitro
Tested at: 100 nM
Notes: RNA with constant flanks, vertebrate orthologous sites, ends assumed
Baseline: input RNA pool
Direction: higher = stronger binding
Quantity: bound/input enrichment
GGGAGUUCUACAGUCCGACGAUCUCCCCGUUACCCCUAAAGUAGAACAUUUUUUAAAUUGUGUUGCCACCACUUCUAAAAAUUUAGCAAUAUUAGAAUAGUACACUAAUGAAGUAAGAAAUUUUGCUUGUUAUUUUGCAAACCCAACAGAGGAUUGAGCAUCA: 4.79 ratio
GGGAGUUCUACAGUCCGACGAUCGUCAUCUGACUGGAUGAAGACUGUUCCAAGUUACAACCAAACAAACAGCUCCAUGGACUUUAGAAAUUACAUGAUGAGAGACGAGACUCUGGAGCCGCUGCCCAAAAACUGGGAAAUGGCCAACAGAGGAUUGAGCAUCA: 0.448 ratio
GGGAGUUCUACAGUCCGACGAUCUUUCUAAUAUUUAAUUUACUCCAUUUAAAUUUUCAUUUACUGAACUUUAGACAUCCUAAUCUGCAUUUUUGUUGAAACUGAUAUAUUGACUGUUCUCACCCAAGUCCUUUUAUAAACUGUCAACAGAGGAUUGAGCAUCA: 0.942 ratio
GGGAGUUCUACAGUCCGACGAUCAUGCAUUUUGCCACUUGGAUGUGGUCUGCACUGGAAGCUGCUGGCCCCUCCACAACAACACAUAAAAUGUUUGUCUUUUUUUAAAAUGUUAAAACUGAAUUGAAUUUACUAAAAAUGUAACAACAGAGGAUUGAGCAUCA: 0.24 ratio
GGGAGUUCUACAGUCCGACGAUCUAUUUAUACUGCCAAACGUUUCUGCCCGUCUUUCUUUGUCCUUCUUUUUUUCCUGGUAGUUCUCGUUGUUACCCGCACCGUUUUUAUGUCUCCUUCACGGAAGGGCUAGAGUUUUAACUUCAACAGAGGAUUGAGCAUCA: 0.708 ratio
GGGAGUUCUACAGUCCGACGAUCCUGUUGUUAAGCACUGUGUUCCAGACUGUGUCUGACUUUCGUGUAACCUAGGAGAUUUUAUUGUUUUAUUUUAAUGAAACCCUGCUUGCCGCAGAGCAGCCGGGAGAGCAGCGUCCACCACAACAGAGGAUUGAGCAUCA: 0.607 ratio
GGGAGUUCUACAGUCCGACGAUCUAAUGUGUUUUUAUUUAUUGAAAAUAGUUUUGUGGUAAGGAUUGUGUUAGAUUUACAAAUCAGUGAAUUGAUUCCUCUUUGUUGUGUUGCUUUCAUUGUUGAAAAUAAAUAGAACUUUGACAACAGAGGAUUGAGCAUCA: 0.348 ratio
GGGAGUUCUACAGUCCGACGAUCCCCCGAUUUUAGAUGUGAUAUCUAGGCUUUCAUUCCAGUUUGUUUUUGUCUUUUCUUGUUUAGAUACCAAUCUUUUAAAUUCUUGCAUUUUAGUAAGAAAGCUACCUUUUUAUGGAUGUUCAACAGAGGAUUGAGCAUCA: 1.03 ratio
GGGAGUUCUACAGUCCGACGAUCCCCUCUGAACCCCAUAUCUUCUGUUUCAUAAUGCAGAAGUAUUCUUUUCAAUUAUAUUGUUAGUGGACUUCUUUUAAUUUUAGAGAAACUUUGAGUACAGAUACUGUGAGCUUACAUUGACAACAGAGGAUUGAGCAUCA: 1.34 ratio
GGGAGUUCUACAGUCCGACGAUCAAGUAGUUUUAAGCUUGUUUGCACAGUUCUUUUUUCCAUUGGAAAUGGAAUUCAUUGCCUUAGGUCUUUUUAAAUAGUGUACUAUUAUUGUUGGGGCUGGCUCUAUGCUUGAAAACCAGUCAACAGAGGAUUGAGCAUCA: 2.24 ratio
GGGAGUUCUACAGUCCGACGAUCUGUAUUCGUGUCAUACCAGCAUAUUAACUUCGUCUGUGCACAGCUUCCGGUGUUACCGUCUAGUUAGAUUUUUAUUUAAAAUAUGAAAAACUGCUUUUCCCAAGAUGUUUUUUAAAGACACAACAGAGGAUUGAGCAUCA: 0.978 ratio

Block 4
Target: Ras GTPase-activating protein-binding protein 1, RRM domain (G3BP1, Homo sapiens, UniProt Q13283)
UniProt Q13283, sequence (whole entry, looked up): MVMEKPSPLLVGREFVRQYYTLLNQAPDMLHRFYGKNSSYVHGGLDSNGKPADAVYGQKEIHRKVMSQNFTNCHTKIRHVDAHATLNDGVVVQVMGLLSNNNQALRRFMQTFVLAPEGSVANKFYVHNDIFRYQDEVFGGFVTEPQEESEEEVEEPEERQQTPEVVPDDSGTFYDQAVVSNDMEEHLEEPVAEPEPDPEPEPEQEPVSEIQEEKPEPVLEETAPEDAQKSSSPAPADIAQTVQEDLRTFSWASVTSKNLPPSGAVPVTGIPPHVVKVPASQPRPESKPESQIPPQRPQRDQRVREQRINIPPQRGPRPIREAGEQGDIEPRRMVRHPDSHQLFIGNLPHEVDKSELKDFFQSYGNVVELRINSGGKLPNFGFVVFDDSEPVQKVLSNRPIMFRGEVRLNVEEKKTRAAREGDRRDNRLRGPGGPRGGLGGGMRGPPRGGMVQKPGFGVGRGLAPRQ
Method: RNA Bind-n-Seq
Form: RNA
Medium: in vitro
Tested at: 1 µM
Notes: whole 134-nt RNA, ends assumed
With: 150 mM KCl
Baseline: input library
Direction: higher = stronger binding
Quantity: log2 enrichment
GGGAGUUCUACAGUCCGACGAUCCACAGACAACACGCACCCACACAGACACAGAGGGAAGGGGUUGGGAUGGGGACAGGGUGCACAGGAGGGCGGGGUAGGACCCCAGCCCCUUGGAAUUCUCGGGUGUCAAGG: 0.0466
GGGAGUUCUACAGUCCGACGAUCUGUGAACUUGUAUGUGAAGAAUCUGGACGACUCCAUUGAUGACGACAAACUGAGGAAAGAGUUCUCUCCCUAUGGAGUAAUUACCAGUGCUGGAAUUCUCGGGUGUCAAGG: 0.00438
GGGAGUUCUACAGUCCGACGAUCUGGCCCUGGUGGCAUGCGGGGAGGAAGAGGUGGCCUCAUGGAUCGUGGUGGUCCCGGUGGAAUGUUCAGAGGUGGCCGUGGGGGAGACAGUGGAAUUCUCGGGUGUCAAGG: 1.87
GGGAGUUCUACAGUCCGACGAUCCUGUGCUACACAUCGUAUGUACCGAAUCGGGGAAAAAAGGGAAAAAAGGGGAAAAAAGGGGAAAGUAUUAUGUUACGCCGUUCGGAUCUGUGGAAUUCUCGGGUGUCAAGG: 0.0665
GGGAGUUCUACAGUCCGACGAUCUGGGAGGUGGAUUUUGUUUAUUUUUUUAGCUCAUUUCCAGGGGUGGGAAUUUUUUUUUAAUUUGUGUCAUGAAUAAAGUUGUUUUUGAAAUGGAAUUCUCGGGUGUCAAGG: 1.7
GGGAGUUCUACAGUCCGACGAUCGCAGGAAGUAAAAACAAAUGAAAAUGCUUCGGAUAGUGGCAGGGGUGGGGGUUGCUAAGGAAAGGGUGGGAUGGGAGUGGGUAAAGAGUUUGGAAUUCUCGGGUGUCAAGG: 1.14
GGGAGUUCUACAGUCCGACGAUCCUCAAGUCCUGUGCUACACAUCGUAUGUACCGAAUCGGGUGGGAAAGGGAGGGAAAGUAUUAUGUUACGCCGUUCGGAUCUGCACUUCCAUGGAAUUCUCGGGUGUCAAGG: 0.625
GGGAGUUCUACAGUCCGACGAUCAGUCCUGUGCUACACAUCGUAUGUACCGAAUCGGUUUUUUGGUUUUUUGGUUUUUUGGAAAGUAUUAUGUUACGCCGUUCGGAUCUGCACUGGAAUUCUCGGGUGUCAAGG: -0.0801
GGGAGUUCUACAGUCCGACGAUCCACAGACAACACGCACCCACACAGACACAGAGGGAAGGAGUUGGGAUGGGGACAGGGUGCACAGCAGGGCGGGGUAGGACCCCAGCCCCUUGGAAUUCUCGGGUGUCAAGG: -0.0832
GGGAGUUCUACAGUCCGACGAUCAAGUCCUGUGCUACACAUCGUAUGUACCGAAUCGGGAAAGGGUUUUUUUGGGUGGGAAAGUAUUAUGUUACGCCGUUCGGAUCUGCACUUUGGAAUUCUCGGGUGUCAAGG: 0.578

A few entries again (block 1):
L3M: 2.85
S10N: 4.66
L7I: 1.61
S8G: 0.19
